Experimental data collected from several papers.
Numbered parts are unrelated; each lists some results of a single study. Substitutions count along the parent as printed.

Series 1 — technique: universal PBM; molecule type: double-stranded DNA, one strand shown; sample: in vitro; concentration: 600 nM; direction: higher = stronger binding; measurement: E-score
Target: Sal-like protein 4, full length isoform A (SALL4, Homo sapiens, UniProt Q9UJQ4, residues 1-1053)
Sequence of UniProt Q9UJQ4 (whole entry, looked up): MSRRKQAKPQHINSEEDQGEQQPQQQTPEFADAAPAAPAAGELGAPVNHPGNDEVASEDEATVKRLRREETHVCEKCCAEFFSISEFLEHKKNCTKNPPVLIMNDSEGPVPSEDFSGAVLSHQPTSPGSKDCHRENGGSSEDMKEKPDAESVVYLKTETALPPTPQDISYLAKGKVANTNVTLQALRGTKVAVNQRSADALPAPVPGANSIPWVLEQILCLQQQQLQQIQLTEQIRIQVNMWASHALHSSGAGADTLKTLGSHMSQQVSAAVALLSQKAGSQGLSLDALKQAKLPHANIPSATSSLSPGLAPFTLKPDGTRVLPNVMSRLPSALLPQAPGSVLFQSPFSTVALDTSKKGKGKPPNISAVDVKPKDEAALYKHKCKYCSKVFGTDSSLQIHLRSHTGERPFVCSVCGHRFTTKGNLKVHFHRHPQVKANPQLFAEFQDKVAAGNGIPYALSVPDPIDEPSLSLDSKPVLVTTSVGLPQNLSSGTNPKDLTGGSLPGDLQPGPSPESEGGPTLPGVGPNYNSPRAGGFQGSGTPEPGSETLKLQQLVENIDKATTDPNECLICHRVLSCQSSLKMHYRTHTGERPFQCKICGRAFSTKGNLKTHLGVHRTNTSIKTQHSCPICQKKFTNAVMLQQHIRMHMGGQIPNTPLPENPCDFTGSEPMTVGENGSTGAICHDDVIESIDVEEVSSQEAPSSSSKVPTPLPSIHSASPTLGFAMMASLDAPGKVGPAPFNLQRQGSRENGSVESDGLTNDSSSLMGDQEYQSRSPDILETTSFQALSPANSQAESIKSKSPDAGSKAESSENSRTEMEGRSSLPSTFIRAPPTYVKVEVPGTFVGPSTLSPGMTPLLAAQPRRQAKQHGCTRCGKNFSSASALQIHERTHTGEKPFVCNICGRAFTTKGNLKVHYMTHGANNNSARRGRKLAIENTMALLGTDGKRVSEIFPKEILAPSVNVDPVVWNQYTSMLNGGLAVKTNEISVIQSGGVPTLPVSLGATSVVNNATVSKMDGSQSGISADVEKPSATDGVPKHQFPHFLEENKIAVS
Notes: 8-mer, flanks averaged, mean of replicates
ACGAAACA: 0.0334
GTTTCGGA: 0.034
AAGCGCTG: -0.12
TACATCTA: 0.221
AACGATAA: 0.194
AGAATTCA: 0.153
CCGACGCG: -0.343
CGGGCACA: -0.303
TGTGAGAA: 0.224
CAGTCGGG: -0.228
ATCTAGGC: -0.0219
CACATTAG: 0.0796

Series 2 — technique: EMSA with sequencing; molecule type: double-stranded DNA, one strand shown; sample: in vitro; concentration: 10 and 20 nM; reference: negative control set to 0; direction: higher = stronger binding; measurement: normalised bound fraction
Target: Hepatocyte nuclear factor 3-alpha (Foxa1, Mus musculus, UniProt P35582, residues 1-468, full length assumed)
Notes: whole designed probe, mean of two concentrations, ends assumed
Target sequence (chain): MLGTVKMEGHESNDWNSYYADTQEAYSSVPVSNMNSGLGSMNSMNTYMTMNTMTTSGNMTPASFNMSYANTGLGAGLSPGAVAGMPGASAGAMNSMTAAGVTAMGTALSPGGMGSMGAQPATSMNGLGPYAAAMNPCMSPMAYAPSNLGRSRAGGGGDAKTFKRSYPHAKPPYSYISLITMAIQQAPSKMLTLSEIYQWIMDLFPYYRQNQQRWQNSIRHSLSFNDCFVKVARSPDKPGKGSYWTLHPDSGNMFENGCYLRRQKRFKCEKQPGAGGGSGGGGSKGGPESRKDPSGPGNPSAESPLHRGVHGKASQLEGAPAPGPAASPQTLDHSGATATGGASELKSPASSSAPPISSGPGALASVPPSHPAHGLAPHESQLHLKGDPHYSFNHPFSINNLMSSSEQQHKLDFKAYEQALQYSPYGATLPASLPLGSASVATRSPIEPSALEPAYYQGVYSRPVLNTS
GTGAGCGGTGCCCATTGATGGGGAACGACAGTACATGTTTTAGGATTTTTGGACCACACAGTCTCTGTCACAATGACTCAGCTTTGCCATTGTAGCGTGCAAACAGCCACAAACCATATGCAAACAAATGTATGGAGGGTGTGGTCCAATAAAACTTTATTTACAAAAGCAGGAGGACAGTGGAGTTGGCTTGCAGACAGTCATTTGCAGAGCCCTGATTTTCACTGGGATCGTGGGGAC: 0.444 ratio
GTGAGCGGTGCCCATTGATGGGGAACTTTAGACAATTAGGATCCTCCCTTCCCAAGCTCTTTCTCCATTGGAAACACAAAGCAAATAAAGATCTCTGTAGATCAGAATGAGTCAGAAAAGCAAACAAGTGGCATGAATGTGGAAACCTGTGGTTGAAAGCACTCCCATGCCATTCAGGGACCAGAGTCAGGTTAAATGCCAGAAACTAAGGGCTGGAAATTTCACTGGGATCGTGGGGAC: 0.472 ratio
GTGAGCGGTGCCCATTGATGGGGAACAAATAAGGCGCGCGAGAGAGGCCAACACGTCGCGGAGGGAGATGTTGTTATTTTTTGCTGTTGTGCGTCCCTGACGTCACATCCACCTGCTGGGTAAACAACCGGGCTCCCAGAAAAAAAAAATCGCAATTGCCAAAGAATGGGGGGGGGGGTTGGGGGGAGGGATCCAGGGAGGGGGAAGTGAGGGGCGTCCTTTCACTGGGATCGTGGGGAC: 0.375 ratio
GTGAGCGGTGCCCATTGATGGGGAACTAAATGCTAAAGCTGAAATGAACAGGGATGGCAGCTGCTCAGGGAACAATGAAGTGAAGTCAATCCTGAATTCCAACTTGAAAATGTTTAAAGTAATCTAGCAGGATCTAGGAGGTCATCTAGGAGGTCATTTTAAGGAAATGATAAGGAAAGACAAAAGGAAAGAAGAGCAAAACAGCTTTAGAAGTTAGTTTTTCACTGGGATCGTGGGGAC: -0.051 ratio
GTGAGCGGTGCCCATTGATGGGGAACATCTTCCCCCTCTTCCTTGCCCCACCAGCTCACCTTCCCGGGTTATTTGCAGATAGGAAAATAAATAAAGCCGGCATTCGTTAACCCTCTTCTGGCGCAAACTGCTGTTTGCTCTGGATGAATCATGGTCCTTTGGCGACGCCAGGCTAAAAAAAAACAAAGCACCGTGTCAGGGCCATGATCCGGGGTGGCCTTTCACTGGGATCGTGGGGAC: 0.332 ratio
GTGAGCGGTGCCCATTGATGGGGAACAAGCAGCCAGTGTCTCTGACACCATACAAATAAAATGCAGCACCATTTGGTGATCCAGCCTATGTTTATTCTTCTCCCTTTGGCAACAGACACTATTTACTTACTATCTTTCCCAGAGCAATAGAGGGAAGCCAGGAAAGTGCTGAGCTTGTATTCTACAACCTGAGAAGGAAGTAAGGGAAAGGAAGAGCTCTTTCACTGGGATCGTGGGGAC: 0.422 ratio
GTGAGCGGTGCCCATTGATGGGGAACATCTTCCCCCTCTTCCTTGCCCCACCAGCTCACCTACGGGGGTTATTTGCACAAAGGAAAATAAATAAAGCCGGCATTCGTTAACGCAGTTCACGCGCATACTGCTGTTTGCTCTGCATCTAACATGGTCCTTACGCGAGGCGTGGCTCCGGGAGAGCAAAGCACCGTGTCAGGCGCATGATCCGGGCTCGCCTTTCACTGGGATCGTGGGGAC: 0.403 ratio

Series 3 — technique: aptamer microarray, sandwich; molecule type: DNA with 2'F-ANA; sample: in vitro; concentration: 200 nM; added: Cy3 exosite-II aptamer, 400 nM; direction: higher = stronger binding; measurement: mean fluorescence intensity; oligonucleotide: GGTTGGTGTGGTTGG
Target: Prothrombin, mature alpha-thrombin (F2, Homo sapiens, UniProt P00734)
Notes: whole 15-mer aptamer, many near background
2'F-ANA at 1 4 7 8 11 13: 106 a.u.
2'F-ANA at 2 4 5 11 13 14 15: 65.1 a.u.
2'F-ANA at 3 4 8 12 13: 766 a.u.
2'F-ANA at 1 2 3 5 6 8 11 14: 51.3 a.u.
2'F-ANA at 5 6 9 10 11 12 14: 81.6 a.u.
2'F-ANA at 2 3 4 8 9 10 11 12 14 15: 160 a.u.
2'F-ANA at 3 5 6 8 9 10 13: 52.7 a.u.
2'F-ANA at 1 2 4 5 6 7 8 9 11 13 15: 56.7 a.u.
2'F-ANA at 3 4 5 7 9 10 11 13 15: 115 a.u.
2'F-ANA at 2 4 5 6 7 8 9 11 15: 63.8 a.u.
2'F-ANA at 3 4 5 7 8 9 11 12 14 15: 72.6 a.u.
2'F-ANA at 1 2 5 6 7 12 15: 101 a.u.
2'F-ANA at 1 3 7 9 10 15: 89.8 a.u.
2'F-ANA at 1 7 8 10 11 12 13 14 15: 57.4 a.u.
2'F-ANA at 2 3 4 5 6 8 9 10 14: 52.5 a.u.
2'F-ANA at 1 2 3 5 7 8 11 13: 53.8 a.u.
2'F-ANA at 4 8 13 14 15: 87.4 a.u.
2'F-ANA at 1 2 8 9 11 12 14: 141 a.u.
2'F-ANA at 2 4 6 8 9 10 11 12 13 15: 78 a.u.
2'F-ANA at 1 12 15: 379 a.u.
2'F-ANA at 2 4 8 12 13: 503 a.u.
2'F-ANA at 5 6 7 9 11 12 13 14: 47.6 a.u.
2'F-ANA at 1 4 5 9 10 14 15: 88 a.u.
2'F-ANA at 2 5 7 8 9 10 11 15: 50.5 a.u.
2'F-ANA at 2 3 4 7 9 11 12 13 14: 266 a.u.

Series 4 — technique: DHFR PCA, deep sequencing; sample: yeast; added: (+)-ABA 17 µM; reference: wild-type fitted maximum; direction: higher = stronger binding; measurement: relative binding score
Target: ABI1, truncated, D143A, DHFR fusion (Arabidopsis thaliana)
Notes: methotrexate growth selection, single substitutions
Starting sequence: PYL1, truncated, DHFR fusion (Arabidopsis thaliana); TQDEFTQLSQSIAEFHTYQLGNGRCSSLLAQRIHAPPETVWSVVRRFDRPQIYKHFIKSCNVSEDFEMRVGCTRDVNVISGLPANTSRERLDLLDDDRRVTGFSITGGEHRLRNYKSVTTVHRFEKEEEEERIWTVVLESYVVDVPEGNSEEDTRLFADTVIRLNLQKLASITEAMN
V142W: 4.21%
S117P: 27.1%
E125I: 82.8%
C72L: 49.1%
A84G: 76.3%
E147R: 73.9%
S42T: 71.7%
P146W: 7.32%
V70K: 53.4%
I57D: -19.5%
G148R: 34.3%
E131R: 85.1%
Q19T: 85.9%

Series 5 — technique: protein binding microarray; molecule type: double-stranded DNA, one strand shown; sample: in vitro; concentration: not given; reference: not given; direction: higher = stronger binding; measurement: E-score
Target: Histone acetyltransferase KAT6A, winged helix 2, GST fusion (KAT6A, Homo sapiens, UniProt Q92794, residues 85-181)
Notes: 8-mer, flanks averaged, mean of 2 arrays, mostly near background
Target sequence (chain): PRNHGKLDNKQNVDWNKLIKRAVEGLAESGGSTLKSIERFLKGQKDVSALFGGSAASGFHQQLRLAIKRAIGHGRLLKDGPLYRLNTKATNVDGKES
ACTTCTCT: -0.0965
GCGATACC: 0.00731
AAGGATCA: -0.0803
CACAGCTA: -0.0289
GCTTCTAA: -0.254
AGTAGGTG: -0.255
GTCTCATA: -0.0819
ACTAACTA: -0.184
GTTGGTTA: -0.02
TCAACAGA: 0.0251
CATATTAG: -0.0278
AAAAAAGA: 0.125
AATGTACA: -0.0775
ACTGGAGC: 0.0139

Series 6 — target: CCND3, cyclin fold, Cln2 fusion (human); technique: yeast growth competition, sequencing; sample: yeast; notes: weak parent motif; reference: not given; direction: higher = stronger binding; measurement: normalised enrichment score
Starting sequence: SAMHD1 docking peptide (human); ASKSRVQLFKDDP
ASKSRYQLFKDDP [V6Y]: 0.0141
ASKSRVNLFKDDP [Q7N]: 0.0586
ASKSRVQLFKYDP [D11Y]: 0.141
AWKSRVQLFKDDP [S2W]: 0.423
ASKSRVQLFKLDP [D11L]: 0.131
ASKSRVQLLKDDP [F9L]: 0.0115
ASKSRVQVFKDDP [L8V]: 0.083
ASKSRVQLFKHDP [D11H]: 0.255
ASKSRVMLFKDDP [Q7M]: -0.313
AYKSRVQLFKDDP [S2Y]: 0.251
ASKSQVQLFKDDP [R5Q]: 0.13
ASKSRVLLFKDDP [Q7L]: -0.0137
ASKSRVQSFKDDP [L8S]: -0.365
ASKGRVQLFKDDP [S4G]: -0.136
ASKSRVQLFKSDP [D11S]: 0.535
ASKSIVQLFKDDP [R5I]: 0.255
ASKSRVQLFKDLP [D12L]: -0.015
ASKSRVQLFKDAP [D12A]: 0.167

Repeated from above (series 4):
V142W: 4.21%
S117P: 27.1%
E125I: 82.8%
C72L: 49.1%
A84G: 76.3%
E147R: 73.9%
S42T: 71.7%
P146W: 7.32%
V70K: 53.4%
I57D: -19.5%
G148R: 34.3%
E131R: 85.1%
Q19T: 85.9%
